Assay results from different studies.
Every numbered part comes from another study and shows a few of its results, in no order.

Set 1 — method: protein-binding microarray; molecule type: double-stranded DNA, one strand shown; sample: in vitro; tested at: 250 nM; notes: 60-bp whole probe; with: salmon DNA 0.4 mg/ml; reference: random background probes; reading: higher = stronger binding; measurement: log fluorescence; all sequences stand within: GCCTAGCAC … GTCTTGATTCGCTTGACGCTGCTG
Target: Interferon regulatory factor 5, full length, phosphomimetic (IRF5, Homo sapiens, UniProt Q13568-2, residues 1-514, K96S/S451D/S453D/S456D/S462D)
GACGGTAGCGACTATCGGGACGTGCTA: 1.3 z-score
TTAGGTTTCCTTATCCATTAGTGCTAG: 1.23 z-score
TTAGGTCTCCTACTGGTTTAGTGCTAG: -0.237 z-score
TTTTTTTTTTCCCTGAAAAAGTGCTAG: 1.83 z-score
TCAGATTTACAAACTGTGACTGTGCTA: 0.288 z-score

Set 2 — method: universal PBM; molecule type: double-stranded DNA, one strand shown; sample: in vitro; tested at: 600 nM; reading: higher = stronger binding; measurement: E-score
Target: Sal-like protein 4, full length isoform A (SALL4, Homo sapiens, UniProt Q9UJQ4, residues 1-1053)
Chain of UniProt Q9UJQ4 (whole entry, looked up): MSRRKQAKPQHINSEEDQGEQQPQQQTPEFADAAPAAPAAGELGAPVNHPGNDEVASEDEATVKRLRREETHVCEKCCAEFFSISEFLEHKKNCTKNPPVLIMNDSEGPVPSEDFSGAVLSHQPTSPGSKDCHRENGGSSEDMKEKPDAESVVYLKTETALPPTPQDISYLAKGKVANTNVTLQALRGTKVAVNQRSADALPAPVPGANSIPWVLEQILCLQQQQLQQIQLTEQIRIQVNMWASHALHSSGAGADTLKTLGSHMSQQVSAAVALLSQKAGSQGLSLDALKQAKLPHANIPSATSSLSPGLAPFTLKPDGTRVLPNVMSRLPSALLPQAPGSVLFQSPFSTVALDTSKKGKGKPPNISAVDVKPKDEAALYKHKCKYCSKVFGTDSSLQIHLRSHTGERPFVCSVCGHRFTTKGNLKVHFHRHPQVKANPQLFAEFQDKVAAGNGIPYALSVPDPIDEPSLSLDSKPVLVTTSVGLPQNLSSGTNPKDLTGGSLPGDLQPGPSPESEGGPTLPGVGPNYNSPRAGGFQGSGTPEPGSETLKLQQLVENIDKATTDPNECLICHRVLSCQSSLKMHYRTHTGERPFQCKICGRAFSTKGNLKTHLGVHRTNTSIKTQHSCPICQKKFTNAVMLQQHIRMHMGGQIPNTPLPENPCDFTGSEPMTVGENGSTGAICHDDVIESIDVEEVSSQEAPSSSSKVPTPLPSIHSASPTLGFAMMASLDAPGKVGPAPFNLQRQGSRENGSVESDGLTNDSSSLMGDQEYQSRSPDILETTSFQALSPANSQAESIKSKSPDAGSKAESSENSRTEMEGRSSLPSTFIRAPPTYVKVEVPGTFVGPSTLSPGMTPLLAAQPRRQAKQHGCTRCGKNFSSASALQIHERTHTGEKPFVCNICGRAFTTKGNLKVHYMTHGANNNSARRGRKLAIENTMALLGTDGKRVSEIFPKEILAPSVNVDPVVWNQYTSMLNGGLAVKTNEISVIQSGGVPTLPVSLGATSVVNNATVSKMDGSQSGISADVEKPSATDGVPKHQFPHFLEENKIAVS
Notes: 8-mer, flanks averaged, mean of replicates
CCGGAAAC: -0.149
AAACCTAT: 0.223
ACCAACCA: -0.0467
CCCTGTCC: -0.281
CTGCGTTC: -0.118
AAGCACTG: 0.127
GGGCATAA: 0.151

Set 3 — method: protein binding microarray; molecule type: double-stranded DNA, one strand shown; sample: in vitro; tested at: not given; reference: not given; reading: higher = stronger binding; measurement: E-score
Target: Histone acetyltransferase KAT6A, both winged helices, GST fusion (KAT6A, Homo sapiens, UniProt Q92794, residues 1-181)
Notes: 8-mer, flanks averaged, mean of 2 arrays, mostly near background
Residues (chain): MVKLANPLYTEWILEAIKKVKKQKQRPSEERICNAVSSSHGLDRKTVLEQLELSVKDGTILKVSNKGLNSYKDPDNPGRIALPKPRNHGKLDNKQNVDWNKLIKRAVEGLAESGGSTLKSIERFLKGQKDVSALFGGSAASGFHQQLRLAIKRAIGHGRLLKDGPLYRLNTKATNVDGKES
CTTAAACC: -0.117
CTAATTAC: -0.115
GGTAATGA: 0.0181
CCGTGCCC: 0.175
ATACGAGA: -0.166
AGAGGTAC: -0.158
CAACCCGC: 0.262

Other studies, line by line
PhoQ, residues 284 288 289 292 302 303 SCKMEA  fold induction (PhoP, residues 12 14 15 18 19 HHYTI (Escherichia coli, UniProt P23836); Sort-seq, measured: YFP reporter; E. coli; PhoQ-PhoP variant library, with: 10 µM Mg2+; reference: high Mg2+ state, higher = stronger signaling): 8.26

Excerpt of the above (set 2):
GGGCATAA: 0.151
